Assay results gathered from unrelated publications.
Every numbered part comes from another study and shows a few of its results, in no order.
UniProt Q9HC98, sequence (whole entry, looked up): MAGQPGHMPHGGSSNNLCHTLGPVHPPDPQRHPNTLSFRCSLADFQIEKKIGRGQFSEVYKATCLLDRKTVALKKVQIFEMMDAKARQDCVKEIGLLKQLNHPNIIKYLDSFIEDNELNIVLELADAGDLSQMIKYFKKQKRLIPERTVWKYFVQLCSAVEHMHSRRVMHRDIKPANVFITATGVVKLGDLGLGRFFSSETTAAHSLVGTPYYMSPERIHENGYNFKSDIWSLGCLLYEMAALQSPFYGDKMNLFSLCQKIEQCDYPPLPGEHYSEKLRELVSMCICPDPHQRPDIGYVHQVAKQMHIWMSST
UniProt P21709, sequence (whole entry, looked up): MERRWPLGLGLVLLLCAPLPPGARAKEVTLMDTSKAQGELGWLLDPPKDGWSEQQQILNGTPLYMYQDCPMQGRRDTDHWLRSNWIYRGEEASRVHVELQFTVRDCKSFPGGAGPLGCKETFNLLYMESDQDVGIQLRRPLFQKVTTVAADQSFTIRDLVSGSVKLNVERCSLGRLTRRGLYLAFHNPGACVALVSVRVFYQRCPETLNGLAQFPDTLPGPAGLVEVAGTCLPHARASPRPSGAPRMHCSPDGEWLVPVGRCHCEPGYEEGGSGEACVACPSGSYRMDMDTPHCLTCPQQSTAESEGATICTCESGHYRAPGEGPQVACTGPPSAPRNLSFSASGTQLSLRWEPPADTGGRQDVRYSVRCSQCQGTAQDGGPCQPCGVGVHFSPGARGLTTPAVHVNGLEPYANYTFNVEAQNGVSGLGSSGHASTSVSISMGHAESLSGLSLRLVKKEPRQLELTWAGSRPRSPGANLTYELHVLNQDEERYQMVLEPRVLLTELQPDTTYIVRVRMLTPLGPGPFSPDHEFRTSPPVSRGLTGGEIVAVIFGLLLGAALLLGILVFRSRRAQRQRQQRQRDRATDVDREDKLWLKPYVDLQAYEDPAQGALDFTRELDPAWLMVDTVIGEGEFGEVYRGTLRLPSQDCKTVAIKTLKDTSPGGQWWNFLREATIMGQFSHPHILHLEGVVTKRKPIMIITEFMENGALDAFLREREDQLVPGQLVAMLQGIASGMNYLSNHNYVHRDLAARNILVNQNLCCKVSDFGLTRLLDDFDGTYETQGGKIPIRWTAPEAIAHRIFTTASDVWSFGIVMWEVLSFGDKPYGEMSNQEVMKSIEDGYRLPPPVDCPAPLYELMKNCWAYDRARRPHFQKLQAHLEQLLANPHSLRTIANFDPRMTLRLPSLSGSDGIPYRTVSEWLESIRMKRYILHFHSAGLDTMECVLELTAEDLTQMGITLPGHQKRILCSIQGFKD
UniProt P51817, sequence (whole entry, looked up): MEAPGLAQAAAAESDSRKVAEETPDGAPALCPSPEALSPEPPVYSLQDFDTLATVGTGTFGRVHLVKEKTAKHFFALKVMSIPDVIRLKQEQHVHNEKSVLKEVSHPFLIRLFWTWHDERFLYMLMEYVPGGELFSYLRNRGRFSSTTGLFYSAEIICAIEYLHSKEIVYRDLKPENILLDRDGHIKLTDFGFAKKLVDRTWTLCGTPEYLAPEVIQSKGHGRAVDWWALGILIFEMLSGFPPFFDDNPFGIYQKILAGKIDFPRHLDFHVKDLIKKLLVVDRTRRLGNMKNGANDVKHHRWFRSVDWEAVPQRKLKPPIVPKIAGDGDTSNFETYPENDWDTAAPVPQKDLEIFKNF
UniProt P17948, sequence (whole entry, looked up): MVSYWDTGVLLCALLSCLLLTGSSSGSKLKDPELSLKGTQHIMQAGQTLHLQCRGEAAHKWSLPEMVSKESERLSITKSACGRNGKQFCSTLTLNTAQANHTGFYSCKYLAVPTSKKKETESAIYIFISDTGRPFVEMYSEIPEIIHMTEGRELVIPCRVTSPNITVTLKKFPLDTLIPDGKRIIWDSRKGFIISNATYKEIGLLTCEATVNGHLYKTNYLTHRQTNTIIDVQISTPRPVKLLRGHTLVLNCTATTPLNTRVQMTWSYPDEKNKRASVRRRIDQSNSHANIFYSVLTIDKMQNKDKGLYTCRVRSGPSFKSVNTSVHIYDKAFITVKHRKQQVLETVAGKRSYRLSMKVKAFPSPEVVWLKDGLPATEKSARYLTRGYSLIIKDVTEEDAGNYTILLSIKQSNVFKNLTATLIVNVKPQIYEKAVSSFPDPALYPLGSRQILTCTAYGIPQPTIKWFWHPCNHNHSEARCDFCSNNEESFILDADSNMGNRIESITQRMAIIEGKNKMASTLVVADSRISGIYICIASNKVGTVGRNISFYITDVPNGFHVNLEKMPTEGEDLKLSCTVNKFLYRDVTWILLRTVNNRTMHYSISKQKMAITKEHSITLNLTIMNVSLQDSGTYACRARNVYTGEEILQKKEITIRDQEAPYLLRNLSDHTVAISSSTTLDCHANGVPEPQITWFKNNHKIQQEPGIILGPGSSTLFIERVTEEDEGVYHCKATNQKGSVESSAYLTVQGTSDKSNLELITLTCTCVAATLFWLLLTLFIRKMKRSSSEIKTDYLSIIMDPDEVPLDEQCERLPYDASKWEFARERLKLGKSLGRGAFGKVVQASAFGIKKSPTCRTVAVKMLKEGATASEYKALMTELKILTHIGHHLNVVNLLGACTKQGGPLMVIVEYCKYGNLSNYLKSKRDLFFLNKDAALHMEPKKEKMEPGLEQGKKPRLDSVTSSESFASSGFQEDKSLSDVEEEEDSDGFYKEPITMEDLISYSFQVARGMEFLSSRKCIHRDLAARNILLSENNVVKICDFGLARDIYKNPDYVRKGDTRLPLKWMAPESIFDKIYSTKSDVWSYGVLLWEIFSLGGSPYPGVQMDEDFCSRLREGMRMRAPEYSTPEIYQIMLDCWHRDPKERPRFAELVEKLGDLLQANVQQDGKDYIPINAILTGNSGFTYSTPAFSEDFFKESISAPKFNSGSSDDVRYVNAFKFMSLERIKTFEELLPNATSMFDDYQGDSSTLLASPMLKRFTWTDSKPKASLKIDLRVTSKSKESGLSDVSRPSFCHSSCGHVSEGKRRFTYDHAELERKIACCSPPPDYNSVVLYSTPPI
UniProt Q86Y07, sequence (whole entry, looked up): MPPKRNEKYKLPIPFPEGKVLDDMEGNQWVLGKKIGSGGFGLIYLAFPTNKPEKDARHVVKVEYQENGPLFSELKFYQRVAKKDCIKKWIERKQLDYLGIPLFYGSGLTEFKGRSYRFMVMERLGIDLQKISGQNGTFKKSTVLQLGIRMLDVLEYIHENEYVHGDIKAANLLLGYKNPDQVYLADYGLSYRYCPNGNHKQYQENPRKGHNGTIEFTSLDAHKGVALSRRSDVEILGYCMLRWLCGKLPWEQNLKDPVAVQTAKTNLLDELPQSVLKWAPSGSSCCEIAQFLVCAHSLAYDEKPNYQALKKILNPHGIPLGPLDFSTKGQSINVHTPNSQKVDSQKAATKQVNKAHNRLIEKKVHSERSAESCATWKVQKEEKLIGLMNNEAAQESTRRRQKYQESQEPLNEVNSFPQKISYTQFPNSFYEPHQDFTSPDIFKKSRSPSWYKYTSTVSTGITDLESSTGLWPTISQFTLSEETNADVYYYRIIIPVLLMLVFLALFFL
UniProt Q13705, sequence (whole entry, looked up): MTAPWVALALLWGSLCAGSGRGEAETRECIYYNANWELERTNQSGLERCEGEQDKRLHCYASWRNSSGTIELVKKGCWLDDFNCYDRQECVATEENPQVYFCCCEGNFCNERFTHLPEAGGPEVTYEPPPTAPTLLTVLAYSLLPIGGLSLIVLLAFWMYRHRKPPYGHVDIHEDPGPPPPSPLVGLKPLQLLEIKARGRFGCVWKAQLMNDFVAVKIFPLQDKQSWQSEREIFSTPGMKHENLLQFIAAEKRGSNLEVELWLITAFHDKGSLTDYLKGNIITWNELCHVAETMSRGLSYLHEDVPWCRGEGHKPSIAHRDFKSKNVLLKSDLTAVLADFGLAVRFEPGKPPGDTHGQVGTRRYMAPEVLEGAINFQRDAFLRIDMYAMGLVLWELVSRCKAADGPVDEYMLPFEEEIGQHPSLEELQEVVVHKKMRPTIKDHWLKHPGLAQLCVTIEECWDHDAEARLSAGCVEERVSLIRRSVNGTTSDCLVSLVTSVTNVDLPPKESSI
UniProt Q13153, sequence (whole entry, looked up): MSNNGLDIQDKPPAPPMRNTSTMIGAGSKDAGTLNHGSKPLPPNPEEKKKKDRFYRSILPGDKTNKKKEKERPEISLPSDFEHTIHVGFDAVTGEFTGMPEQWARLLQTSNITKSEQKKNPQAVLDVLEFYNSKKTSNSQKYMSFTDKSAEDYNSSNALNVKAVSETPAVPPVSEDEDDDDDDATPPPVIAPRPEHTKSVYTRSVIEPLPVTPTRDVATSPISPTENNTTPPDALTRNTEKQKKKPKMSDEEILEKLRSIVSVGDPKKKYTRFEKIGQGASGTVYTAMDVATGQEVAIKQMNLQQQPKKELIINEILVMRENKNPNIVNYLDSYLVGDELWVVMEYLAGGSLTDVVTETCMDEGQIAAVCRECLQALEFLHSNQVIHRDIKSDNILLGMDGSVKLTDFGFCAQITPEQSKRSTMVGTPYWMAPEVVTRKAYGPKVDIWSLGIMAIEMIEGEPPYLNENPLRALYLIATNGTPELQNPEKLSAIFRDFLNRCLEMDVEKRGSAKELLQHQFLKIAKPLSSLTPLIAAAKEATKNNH

Set 1 — read-out: acetyl-histone H4 peptide binding; technique: AlphaScreen displacement; concentration: 50 µM
Target: Bromodomain-containing protein 4, BD1 (BRD4, Homo sapiens, UniProt O60885)
SMILES | inhibition
Nc1nc(Nc2ccc(F)cc2)sc1C(=O)c1ccccc1 | 15.5%
O=c1[nH]cnc2cccc(Cl)c12 | 4.25%
CC(C)c1nn(-c2c(Cl)cccc2Cl)c2nc(Cc3ccc(OCCO)cc3)[nH]c(=O)c12 | 9.35%
CC(Nc1nc(-c2cncnc2)cnc1N)c1ccccc1 (centres unmarked) | 16.1%
CCC(CO)Nc1ccc2ncc(-c3ccc(F)c(Cl)c3)n2n1 (centres unmarked) | 3.1%
CC(=O)Cc1cc(-c2cc(CC(C)=O)[nH]n2)n[nH]1 | 12.2%
COc1ccc(-c2nnc3ccc(SCC(N)=O)nn23)cc1OC | -3.55%
COc1ccc(Cl)cc1C(=O)Nc1ccc2[nH]ncc2c1 | 2.25%
N#CC(=Cc1ccncc1)c1nc(-c2ccccc2)cs1 | 23.2%
Cc1ccc(NC(=O)c2cccc(N(C)C)c2)cc1NC(=O)c1ccc(O)cc1 | 36.7%
CCN(CC)Cc1c(-c2ccncc2)[nH]c2ncccc12 | 1.15%
Nc1nc(SCc2c(Cl)cccc2Cl)c2nc[nH]c2n1 | 47.9%
COc1ccc(CNc2nc(N(CCO)CCO)nc3c2ncn3C(C)C)cc1 | 18.5%

Set 2 — read-out: enzyme activity; mode: inhibitor; concentration: 10 µM
Target: Calcium/calmodulin-dependent protein kinase type II subunit alpha (CAMK2A, Homo sapiens, UniProt Q9UQM7)
UniProt Q9UQM7, sequence (whole entry, looked up): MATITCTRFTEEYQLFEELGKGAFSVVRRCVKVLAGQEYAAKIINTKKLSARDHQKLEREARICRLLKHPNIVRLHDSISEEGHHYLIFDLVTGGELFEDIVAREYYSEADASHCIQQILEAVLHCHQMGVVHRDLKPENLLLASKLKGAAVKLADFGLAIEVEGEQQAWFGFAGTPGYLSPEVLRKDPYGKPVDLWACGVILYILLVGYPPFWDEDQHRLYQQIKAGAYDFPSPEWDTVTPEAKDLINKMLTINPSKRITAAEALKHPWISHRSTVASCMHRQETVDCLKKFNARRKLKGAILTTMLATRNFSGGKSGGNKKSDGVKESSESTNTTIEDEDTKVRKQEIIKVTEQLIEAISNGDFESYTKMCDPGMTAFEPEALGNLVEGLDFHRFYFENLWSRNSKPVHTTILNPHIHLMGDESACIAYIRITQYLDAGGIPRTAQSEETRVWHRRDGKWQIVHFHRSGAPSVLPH
Structure (SMILES) | inhibition [%]
O=P(O)(O)OC[C@H]1OC(O)(COP(=O)(O)O)[C@@H](O)[C@@H]1O (some centres unmarked) | 26
CC(C)NC(=O)COc1cccc(-c2nc(Nc3ccc4[nH]ncc4c3)c3ccccc3n2)c1 | -12
Nc1ccccc1NC(=O)c1ccc(CNc2nccc(-c3cccnc3)n2)cc1 | 2
Cc1cc(C)cc(OCC2CNC(=O)O2)c1 (centres unmarked) | -15
COc1cc(N2CCC(N3CCN(C)CC3)CC2)ccc1Nc1ncc(Cl)c(Nc2ccccc2P(C)(C)=O)n1 | 63
NC(N)=N[C@@H](CC(=O)O)C(=O)O | -5
CC(C)C[C@H](NC(=O)[C@H](C)N)C(=O)O | -10
C/C1=C\[C@@H]2[C@H](C/C=C(/CO)[C@@H](O)[C@@H]3[C@@H](O)[C@@H](C)C[C@]3(O)C1=O)C2(C)C | 9
CN(C)CCCN1c2ccccc2CCc2ccccc21 | 1
CC(=O)Nc1c(I)cc(I)c(C(=O)O)c1I | -1
CN(C)[C@@H]1C(O)=C(C(N)=O)C(=O)[C@@]2(O)C(O)=C3C(=O)c4c(O)ccc(Cl)c4[C@@H](O)[C@H]3C[C@@H]12 | 29
C[C@@H]1CC[C@]2(C(=O)O[C@@H]3O[C@H](CO)[C@@H](O)[C@H](O)[C@H]3O)CC[C@]3(C)C(=CC[C@@H]4[C@@]5(C)C[C@@H](O)[C@H](O)C(C)(C)[C@@H]5CC[C@]43C)[C@@H]2[C@]1(C)O | -1
CC(=O)OCCc1ccc(O)c(O)c1 | -31
C=C(CCC(C(=O)O)[C@H]1[C@H](O)C[C@@]2(C)C3=CC[C@H]4C(C)(C)[C@@H](OC(C)=O)CC[C@]4(C)C3=CC[C@]12C)C(C)C (some centres unmarked) | 13
CC1(C)[C@@H](O)CC[C@]2(C)[C@H]3C(=O)C=C4[C@H]5C[C@@](C)(C(=O)O)CC[C@]5(C)CC[C@@]4(C)[C@]3(C)CC[C@@H]12 | 4
COc1ccc(CN2CCN(C(c3ccc(F)cc3)c3ccc(F)cc3)CC2)c(OC)c1OC | -5
CC1CCCCCCCCCCCCC(=O)C1 (centres unmarked) | -13
COc1ccc(C(C)=O)c(O[C@@H]2O[C@H](CO[C@@H]3OC[C@H](O)[C@H](O)[C@H]3O)[C@@H](O)[C@H](O)[C@H]2O)c1 | 6
CCN(CC)C(=S)SSC(=S)N(CC)CC | -10
C[C@H](CC(=O)C[C@](C)(O)[C@@H]1CC(=O)[C@@]2(C)C3=C(C(=O)C[C@]12C)[C@@]1(C)CC[C@H](O)C(C)(C)[C@@H]1C[C@@H]3O)C(=O)O | -26
Cn1nnc(-c2ccc(-c3ccc(N4C[C@H](CO)OC4=O)cc3F)cn2)n1 | -17
CNCc1ccccc1 | -9
O[C@H]1[C@H]2c3cc4c(cc3CN3CC[C@H](C[C@@H]1O)[C@H]23)OCO4 | -3

Set 3 — technique: competition with immobilised ligand; concentration: 1 µM
SMILES: Cn1nc(C(F)(F)F)cc1-c1cnc(N2CCc3cc(S(=O)(=O)Nc4c(F)cc(Cl)cc4F)cc(N4CCCC4=O)c32)nc1
target | read-out | remaining binding [%]
Tyrosine-protein kinase ABL1, phosphorylated (ABL1, Homo sapiens, UniProt P00519, Y253F) | cell-free assay | 95
ACVR2A (Homo sapiens, UniProt P27037) | cell-free assay | 83
CAMK1 (Homo sapiens, UniProt Q14012) | cell-free assay | 95
NEK6 (Homo sapiens, UniProt Q9HC98) | cell-free assay | 100
IKBKE (Homo sapiens, UniProt Q14164) | cell-free assay | 94
Cyclin-dependent kinase 4, with cyclin D3 (CDK4, Homo sapiens, UniProt P11802) | cell-free assay | 82
PAK1 (Homo sapiens, UniProt Q13153) | cell-free assay | 100
STK32A (Homo sapiens, UniProt Q8WU08) | cell-free assay | 78
EPHA1 (Homo sapiens, UniProt P21709) | cell-free assay | 100
Myosin-IIIa (MYO3A, Homo sapiens, UniProt Q8NEV4) | binding | 100
FLT3 (Homo sapiens, UniProt P36888, D835V) | cell-free assay | 91
ACVR2B (Homo sapiens, UniProt Q13705) | binding | 87
PRKX (Homo sapiens, UniProt P51817) | cell-free assay | 97
FLT1 (Homo sapiens, UniProt P17948) | cell-free assay | 95
VRK2 (Homo sapiens, UniProt Q86Y07) | cell-free assay | 61

Set 4 — read-out: enzyme activity; mode: inhibitor; concentration: 0.5 µM; relative to: control
Target: Serine/threonine-protein kinase D3 (PRKD3, Homo sapiens, UniProt O94806)
Residues (O94806 1-890): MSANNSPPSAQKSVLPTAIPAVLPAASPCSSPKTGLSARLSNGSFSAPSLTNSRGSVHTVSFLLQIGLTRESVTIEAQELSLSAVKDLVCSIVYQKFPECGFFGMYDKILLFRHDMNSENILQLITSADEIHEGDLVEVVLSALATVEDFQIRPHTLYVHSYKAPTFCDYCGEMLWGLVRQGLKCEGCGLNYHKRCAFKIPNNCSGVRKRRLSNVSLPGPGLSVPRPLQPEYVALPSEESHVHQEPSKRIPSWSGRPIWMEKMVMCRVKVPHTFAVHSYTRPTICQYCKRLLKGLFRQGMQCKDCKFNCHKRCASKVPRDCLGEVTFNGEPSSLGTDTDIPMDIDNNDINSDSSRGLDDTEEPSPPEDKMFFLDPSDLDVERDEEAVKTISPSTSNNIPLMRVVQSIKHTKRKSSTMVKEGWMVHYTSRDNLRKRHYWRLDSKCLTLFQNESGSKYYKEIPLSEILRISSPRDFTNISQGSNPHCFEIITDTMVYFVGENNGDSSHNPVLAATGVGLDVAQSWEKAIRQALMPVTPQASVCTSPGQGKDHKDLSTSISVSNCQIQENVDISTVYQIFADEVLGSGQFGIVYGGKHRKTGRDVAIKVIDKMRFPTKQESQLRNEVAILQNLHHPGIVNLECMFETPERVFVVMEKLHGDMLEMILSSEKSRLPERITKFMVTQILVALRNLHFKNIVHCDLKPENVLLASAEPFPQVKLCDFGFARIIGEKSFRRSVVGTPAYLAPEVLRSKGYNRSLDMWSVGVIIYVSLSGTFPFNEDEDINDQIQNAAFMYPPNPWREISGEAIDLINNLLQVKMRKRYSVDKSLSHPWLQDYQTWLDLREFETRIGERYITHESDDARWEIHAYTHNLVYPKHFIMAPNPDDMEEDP
SMILES | remaining activity
COc1cccc(-c2cc(=O)c3ccccc3o2)c1N | 94.3%
CN(C)S(=O)(=O)c1ccc2c(c1)/C(=C/c1cc3c([nH]1)CCCC3)C(=O)N2 | 90.4%
Cc1ccc(S(=O)(=O)/C=C/C#N)cc1 | 96.1%
Cc1cc(Nc2cc(N3CCN(C)CC3)nc(Sc3ccc(NC(=O)C4CC4)cc3)n2)[nH]n1 | 86.6%
O=c1cc(N2CCOCC2)oc2c(-c3ccccc3)cccc12 | 92.5%
O=C1NC(=O)c2c1c1c3ccccc3[nH]c1c1[nH]c3cc(Br)ccc3c21 | 49.5%
O=C1Nc2ccc(Br)cc2/C1=C/c1cc2c([nH]1)CCCC2 | 90.3%
c1ccc(-c2n[nH]c3c2oc2ccccc23)cc1 | 99.6%
N#Cc1cnc2cnc(NCc3cccnc3)cc2c1Nc1ccc(F)c(Cl)c1 | 90.4%
CCCCc1c(-c2ccc(OC)cc2)[nH]c2nccnc12 | 88.5%
COc1ccc(COc2ccc(Cc3cnc(N)nc3N)cc2OC)cc1 | 97.1%
O=C1NC(=O)c2c1c1c3ccccc3[nH]c1n1cncc21 | 47.7%
O=C(c1cc2cc(O)ccc2[nH]1)c1cc2cc(O)ccc2[nH]1 | 54.9%
O=Nc1c(-c2c(O)[nH]c3cc(Br)ccc23)[nH]c2ccccc12 | 87.8%
COc1ccc2c(c1)c(C1=C(c3c[nH]c4ccccc34)C(=O)NC1=O)cn2CCCN(C)C | 91.9%
O=C1Cc2c([nH]c3ccc(Br)cc23)-c2ccccc2N1 | 95.5%
O=C1Nc2ccccc2/C1=C\c1c(Cl)[nH]c2ccccc12 | 87.7%
Oc1cccc(-c2nc(N3CCOCC3)c3oc4ncccc4c3n2)c1 | 92.9%
CCCNC(=O)Nc1ccc(Oc2ncnc3cc(OC)c(OC)cc23)cc1Cl | 93.4%
c1ccc2c(-c3ccncc3)c[nH]c2c1 | 90.7%
